Published values from different studies.
Compare with care: the assays were run in different laboratories.
Technique: steady-state kinetics
B1: enzyme R120K (Arabidopsis thaliana, UniProt O82390); chain MNARALLCSSNIHSLYTSNRPPEKTSSSRSLRNLKPSPKSLRVWIYPRNRSSVFRVLVRSSDKSESSNSYYVEGDKVSGNNDVVSDSPSSIVLPWWEEFPKRWVIVLLCFSAFLLCNMDKVNMSIAILPMSAEYGWNPATVGLIQSSFFWGYLLTQIAGGIWADTVGGKRVLGFGVIWWSIATILTPVAAKLGLPYLLVVRAFMGVGEGVAMPAMNNILSKWVPVQERSRSLALVYSGMYLGSVTGLAFSPFLIHQFGWPSVFYSFGSLGTVWLTLWLTKAESSPLEDPTLLPEERKLIADNCASKEPVKSIPWRLILSKPPVWALISCHFCHNWGTFILLTWMPTYYHQVLKFNLMESGLLSVFPWMTMAISANAGGWIADTLVSRGFSVTNVRKIMQTIGFLGPAFFLTQLKHIDSPTMAVLCMACSQGTDAFSQSGLYSNHQDIAPRYSGVLLGLSNTAGVLAGVLGTAATGHILQHGSWDDVFTISVGLYLVGTVIWNLFSTGEKIID
B2: enzyme (Oryctolagus cuniculus, UniProt A0A5F9DQ59); chain MLEAPPPLWAAAALGLTLLGLMVFLCRRHWAMLRIGYNEFLLQPLRNLLMGDSKEQRILHHVRQHAQRGDPQSVLDAIDTYCSQKEWAMNVGDKKGAIMDSVIQEYRPSLVLELGAYCGYSAVRIARLLPPGGRLLTMEINPTYAAITQQMLDIAGLQDKVTVLLGASQDLIPQLKHKYDVDTLDMVFLDHWKDRYLPDTLLLEECGLLRKGSVLLADNVIVPGAPDFLAHVRGSSSFECTHYSSFLEYMPVVDGLEKAIYVGPGRPN
B3: UGT3A2 Y474C (Homo sapiens, UniProt Q3SY77); chain AKILTISTVGGSHYLLMDRVSQILQDHGHNVTMLNHKRGPFMPDFKKEEKSYQVISWLAPEDHQREFKKSFDFFLEETLGGRGKFENLLNVLEYLALQCSHFLNRKDIMDSLKNENFDMVIVETFDYCPFLIAEKLGKPFVAILSTSFGSLEFGLPIPLSYVPVFRSLLTDHMDFWGRVKNFLMFFSFCRRQQHMQSTFDNTIKEHFTEGSRPVLSHLLLKAELWFINSDFAFDFARPLLPNTVYVGGLMEKPIKPVPQDLENFIAKFGDSGFVLVTLGSMVNTCQNPEIFKEMNNAFAHLPQGVIWKCQCSHWPKDVHLAANVKIVDWLPQSDLLAHPSIRLFVTHGGQNSIMEAIQHGVPMVGIPLFGDQPENMVRVEAKKFGVSIQLKKLKAETLALKMKQIMEDKRYKSAAVAASVILRSHPLSPTQRLVGWIDHVLQTGGATHLKPCVFQQPWHEQYLLDVFVFLLGLTLGTLWLCGKLLGMAVWWLRGARKVKET
B4: CYP2C19 (Homo sapiens, UniProt P33261); chain MDPFVVLVLCLSCLLLLSIWRQSSGRGKLPPGPTPLPVIGNILQIDIKDVSKSLTNLSKIYGPVFTLYFGLERMVVLHGYEVVKEALIDLGEEFSGRGHFPLAERANRGFGIVFSNGKRWKEIRRFSLMTLRNFGMGKRSIEDRVQEEARCLVEELRKTKASPCDPTFILGCAPCNVICSIIFQKRFDYKDQQFLNLMEKLNENIRIVSTPWIQICNNFPTIIDYFPGTHNKLLKNLAFMESDILEKVKEHQESMDINNPRDFIDCFLIKMEKEKQNQQSEFTIENLVITAADLLGAGTETTSTTLRYALLLLLKHPEVTAKVQEEIERVIGRNRSPCMQDRGHMPYTDAVVHEVQRYIDLIPTSLPHAVTCDVKFRNYLIPKGTTILTSLTSVLHDNKEFPNPEMFDPRHFLDEGGNFKKSNYFMPFSAGKRICVGEGLARMELFLFLTFILQNFNLKSLIDPKDLDTTPVVNGFASVPPFYQLCFIPV
B5: FMO3 V277A (Homo sapiens, UniProt P31513); chain GKKVAIIGAGVSGLASIRSCLEEGLEPTCFEKSNDIGGLWKFSDHAEEGRASIYKSVFSNSSKEMMCFPDFPFPDDFPNFMHNSKIQEYIIAFAKEKNLLKYIQFKTFVSSVNKHPDFATTGQWDVTTERDGKKESAVFDAVMVCSGHHVYPNLPKESFPGLNHFKGKCFHSRDYKEPGVFNGKRVLVVGLGNSGCDIATELSRTAEQVMISSRSGSWVMSRVWDNGYPWDMLLVTRFGTFLKNNLPTAISDWLYVKQMNARFKHENYGLMPLNGALRKEPVFNDELPASILCGIVSVKPNVKEFTETSAIFEDGTIFEGIDCVIFATGYSFAYPFLDESIIKSRNNEIILFKGVFPPLLEKSTIAVIGFVQSLGAAIPTVDLQSRWAAQVIKGTCTLPSMEDMMNDINEKMEKKRKWFGKSETIQTDYIVYMDELSSFIGAKPNIPWLFLTDPKLAMEVYFGPCSPYQFRLVGPGQWPGARNAILTQWDRSLKPMQTRVVGRLQKPCFFFHWLKLFAIPILLIAVFLVLT
B6: UGT1A9 (Homo sapiens, UniProt O60656); chain GKLLVVPMDGSHWFTMRSVVEKLILRGHEVVVVMPEVSWQLGRSLNCTVKTYSTSYTLEDLDREFKAFAHAQWKAQVRSIYSLLMGSYNDIFDLFFSNCRSLFKDKKLVEYLKESSFDAVFLDPFDNCGLIVAKYFSLPSVVFARGILCHYLEEGAQCPAPLSYVPRILLGFSDAMTFKERVRNHIMHLEEHLLCHRFFKNALEIASEILQTPVTEYDLYSHTSIWLLRTDFVLDYPKPVMPNMIFIGGINCHQGKPLPMEFEAYINASGEHGIVVFSLGSMVSEIPEKKAMAIADALGKIPQTVLWRYTGTRPSNLANNTILVKWLPQNDLLGHPMTRAFITHAGSHGVYESICNGVPMVMMPLFGDQMDNAKRMETKGAGVTLNVLEMTSEDLENALKAVINDKSYKENIMRLSSLHKDRPVEPLDLAVFWVEFVMRHKGAPHLRPAAHDLTWYQYHSLDVIGFLLAVVLTVAFITFKCCAYGYRKCLGKKGRVKKAHKSKTH
B7: enzyme (Candida albicans, UniProt A0A1D8PHX1); chain MISIIQNGISQLSSVSGLDEANLKILICTLLSFPFGIIFKRLPDHDYTLKNIYNVAVSCFYVFGICDLRFGISTLLISATGSYFITRYVRTKSMPWINFLFLMIHMAYSHFHLQFFKEYDPKSIDITGAQMILVMKLSAFGWNIHDGKQPRSTLNDFNKARAITKHPNVLPYIGYVFFYASLLTGPAFDYADYDKFIHGTLFDDVPQDKRPGKNKRRIPRSGVQAFKKFSLGFFWAFLLLQSDKFVTMEYMFSPEFVQYHGLFYRIIYMWILGFTFRLKYYTIWTIAEGACILCGIGYNGVDPETGEFKWNRVQNIDPWSFETGQNVHACLEAWNQNTNIWLKNYVYLRVAKPGKKPGFKSTIFTFTTSAFWHGTRPGYYLTFVVGALMQTVGKYYRRNFRPIFLEADGKTPKPTKIVYDFVCWVNTQLAFGFFVQPFVILGFTKSLECWATVYYWLLWVIAISFFAFSGPFAKSVSKFFKSLQPSYREQQRKSREDKYKLNNEEASIVEQAVGAKLGQDYDIPALGLPPFDVFTDFDQTEVDHDIQHLRKAWTSFRGRRGSITENDFDGLKDAYNNFTNEINDIFNTKKEEFKKEKLNKQN
B8: enzyme R228K (Arabidopsis thaliana, UniProt O82390); chain MNARALLCSSNIHSLYTSNRPPEKTSSSRSLRNLKPSPKSLRVWIYPRNRSSVFRVLVRSSDKSESSNSYYVEGDKVSGNNDVVSDSPSSIVLPWWEEFPKRWVIVLLCFSAFLLCNMDRVNMSIAILPMSAEYGWNPATVGLIQSSFFWGYLLTQIAGGIWADTVGGKRVLGFGVIWWSIATILTPVAAKLGLPYLLVVRAFMGVGEGVAMPAMNNILSKWVPVQEKSRSLALVYSGMYLGSVTGLAFSPFLIHQFGWPSVFYSFGSLGTVWLTLWLTKAESSPLEDPTLLPEERKLIADNCASKEPVKSIPWRLILSKPPVWALISCHFCHNWGTFILLTWMPTYYHQVLKFNLMESGLLSVFPWMTMAISANAGGWIADTLVSRGFSVTNVRKIMQTIGFLGPAFFLTQLKHIDSPTMAVLCMACSQGTDAFSQSGLYSNHQDIAPRYSGVLLGLSNTAGVLAGVLGTAATGHILQHGSWDDVFTISVGLYLVGTVIWNLFSTGEKIID
B9: enzyme (Tanacetum cinerariifolium, UniProt H6U1I8); chain SQQAAALFIFGDSVFDPGNNNHINTHVNFKANFWPYGQSYFSSPTGRFSDGRIIPDFIAEYASLPIIPAYLEPNNDFTHGANFASAGAGALIASHAGLAVGLQTQLRYFGDLVDHYRQNLGDIKSRQLLSDAVYLFSCGGNDYQSPYYPYTQEQYVDIVIGNMTNVIKGIYEKGGRKFGVVNVPLIGCWPGMRAKQPGNTCNTEVDELTRLHNQAFAKRLEQLEKQLEGFVYAKFDLSTAILNRMKNPSKYGFKEGESACCGSGPFGGNYDCGRIKEFGLCDNATEYFFFDPFHPNELASRQFAEMFWDGDSMVTQPYNLKALFEGKPSTKYLPNDEL
Sequence of UniProt Q01740 (whole entry, looked up): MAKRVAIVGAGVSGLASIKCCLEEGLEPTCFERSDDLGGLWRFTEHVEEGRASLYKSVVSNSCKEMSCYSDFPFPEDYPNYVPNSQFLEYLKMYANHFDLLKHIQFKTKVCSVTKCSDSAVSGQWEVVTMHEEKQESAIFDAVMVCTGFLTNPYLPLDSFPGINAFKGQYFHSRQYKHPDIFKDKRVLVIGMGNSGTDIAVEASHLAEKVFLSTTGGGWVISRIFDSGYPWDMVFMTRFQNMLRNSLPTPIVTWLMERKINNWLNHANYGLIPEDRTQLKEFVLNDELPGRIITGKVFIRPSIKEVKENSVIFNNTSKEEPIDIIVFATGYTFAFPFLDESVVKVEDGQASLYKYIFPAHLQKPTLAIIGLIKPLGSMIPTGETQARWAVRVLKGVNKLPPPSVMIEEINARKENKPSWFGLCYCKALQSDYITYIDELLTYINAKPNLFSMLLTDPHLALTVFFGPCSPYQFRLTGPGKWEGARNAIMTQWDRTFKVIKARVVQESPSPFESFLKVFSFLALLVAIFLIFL

B1 (enzyme R120K) — Vmax/Km (O=P(O)(O)O; pH 6.5, 25 °C, apparent, not purified): 26.7 µL/min/mg
B2 (enzyme) — Vmax/Km (O=c1oc2c(O)c(O)ccc2cc1-c1nc2ccccc2s1; pH 7.4, 37 °C): 235 µL/min/mg
B3 (UGT3A2 Y474C) — Vmax/Km (O=c1ccn([C@@H]2O[C@H](CO[P@@](=O)(O)O[P@@](=O)(O)O[C@H]3O[C@H](CO)[C@@H](O)[C@H](O)[C@H]3O)[C@@H](O)[C@H]2O)c(=O)[nH]1; pH 7.4, 37 °C, not purified, with: 1-OH-pyrene 16 µM, MgCl2 10 mM, alamethicin): 0.032 µL/min/mg
B4 (CYP2C19) — Vmax/Km (COc1cc2c(cc1CC=C(C)C)C(=O)C[C@@H](c1ccc(O)cc1)O2; pH 7.4, 37 °C): 133 µL/min/mg
B5 (FMO3 V277A) — Vmax/Km (CN1CCC[C@H]1c1cccnc1; HEK293 microsomes; 37 °C, not purified, with: NADPH regenerating system): 0.0098 µL/min/mg
B6 (UGT1A9) — Vmax/Km (COc1ccc(-c2oc3cc(O)cc(O)c3c(=O)c2OC)cc1O; pH 7.4, 37 °C): 4570 µL/min/mg
B7 (enzyme) — Vmax/Km (CCCCCCCCCCCCCCCCCC(=O)SCCNC(=O)CCNC(=O)[C@H](O)C(C)(C)COP(=O)(O)OP(=O)(O)OC[C@H]1O[C@@H](n2cnc3c(N)ncnc32)[C@H](O)[C@@H]1OP(=O)(O)O; pH 7.4, 37 °C, apparent, not purified): 140 µL/min/mg
B8 (enzyme R228K) — Vmax/Km (O=P(O)(O)O; pH 6.5, 25 °C, apparent, not purified): 41.7 µL/min/mg
FMO1 (Homo sapiens, UniProt Q01740) — Vmax/Km (CN1CCC[C@H]1c1cccnc1; HEK293 microsomes; 37 °C, not purified, with: NADPH regenerating system): 0.0155 µL/min/mg
B9 (enzyme) — Vmax/Km (CC(C)=C[C@@H]1[C@@H](C(=O)SCCn2ccnc2)C1(C)C; pH 7.5, 25 °C): 1870 µL/min/mg

Some of these lines once more:
B6 (UGT1A9) — Vmax/Km (COc1ccc(-c2oc3cc(O)cc(O)c3c(=O)c2OC)cc1O; pH 7.4, 37 °C): 4570 µL/min/mg
